{"data": "Measured values from different studies", "ABCB1": "ATP-dependent translocase ABCB1 (ABCB1, Homo sapiens, UniProt P08183)", "CYP2C8": "Cytochrome P450 2C8 (CYP2C8, Homo sapiens, UniProt P10632)", "CYP2C19": "Cytochrome P450 2C19 (CYP2C19, Homo sapiens, UniProt P33261)", "DPP4": "Dipeptidyl peptidase 4 (DPP4, Homo sapiens, UniProt P27487)", "note": "Compare with care: the assays were run in different laboratories.", "chain of UniProt P27487 (whole entry, looked up)": "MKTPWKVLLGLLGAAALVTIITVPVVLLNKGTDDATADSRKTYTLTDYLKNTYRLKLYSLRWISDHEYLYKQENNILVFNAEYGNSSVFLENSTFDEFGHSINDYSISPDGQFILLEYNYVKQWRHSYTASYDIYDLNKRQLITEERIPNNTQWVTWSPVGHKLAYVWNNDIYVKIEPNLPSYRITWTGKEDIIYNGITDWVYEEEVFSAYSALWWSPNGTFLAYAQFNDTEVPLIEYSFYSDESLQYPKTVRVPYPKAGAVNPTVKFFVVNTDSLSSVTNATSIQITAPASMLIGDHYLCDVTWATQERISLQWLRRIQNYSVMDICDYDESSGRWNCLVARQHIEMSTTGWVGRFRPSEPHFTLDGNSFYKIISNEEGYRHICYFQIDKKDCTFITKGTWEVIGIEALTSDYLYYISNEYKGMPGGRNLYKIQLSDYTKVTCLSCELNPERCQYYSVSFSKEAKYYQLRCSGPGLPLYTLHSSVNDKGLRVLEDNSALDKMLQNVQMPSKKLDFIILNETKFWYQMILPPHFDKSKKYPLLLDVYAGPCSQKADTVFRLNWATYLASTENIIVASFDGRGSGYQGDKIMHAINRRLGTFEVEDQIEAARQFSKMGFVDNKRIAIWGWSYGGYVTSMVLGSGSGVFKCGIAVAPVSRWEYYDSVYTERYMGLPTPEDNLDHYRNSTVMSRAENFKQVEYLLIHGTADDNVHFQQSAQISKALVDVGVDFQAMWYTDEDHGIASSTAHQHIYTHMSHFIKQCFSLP", "chain of UniProt P10632 (whole entry, looked up)": "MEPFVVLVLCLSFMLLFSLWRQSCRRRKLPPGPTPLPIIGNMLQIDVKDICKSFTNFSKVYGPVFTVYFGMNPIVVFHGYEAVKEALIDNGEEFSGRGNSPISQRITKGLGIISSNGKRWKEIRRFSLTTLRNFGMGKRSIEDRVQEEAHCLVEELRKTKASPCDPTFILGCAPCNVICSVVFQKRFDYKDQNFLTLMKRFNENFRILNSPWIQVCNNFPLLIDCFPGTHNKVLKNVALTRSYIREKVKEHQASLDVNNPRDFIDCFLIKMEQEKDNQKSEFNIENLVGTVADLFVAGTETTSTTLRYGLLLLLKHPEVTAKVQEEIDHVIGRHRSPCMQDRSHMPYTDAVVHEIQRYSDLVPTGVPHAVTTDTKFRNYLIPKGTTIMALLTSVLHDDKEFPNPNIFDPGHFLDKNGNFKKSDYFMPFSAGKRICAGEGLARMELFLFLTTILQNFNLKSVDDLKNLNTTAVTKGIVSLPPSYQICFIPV", "chain of UniProt P08183 (whole entry, looked up)": "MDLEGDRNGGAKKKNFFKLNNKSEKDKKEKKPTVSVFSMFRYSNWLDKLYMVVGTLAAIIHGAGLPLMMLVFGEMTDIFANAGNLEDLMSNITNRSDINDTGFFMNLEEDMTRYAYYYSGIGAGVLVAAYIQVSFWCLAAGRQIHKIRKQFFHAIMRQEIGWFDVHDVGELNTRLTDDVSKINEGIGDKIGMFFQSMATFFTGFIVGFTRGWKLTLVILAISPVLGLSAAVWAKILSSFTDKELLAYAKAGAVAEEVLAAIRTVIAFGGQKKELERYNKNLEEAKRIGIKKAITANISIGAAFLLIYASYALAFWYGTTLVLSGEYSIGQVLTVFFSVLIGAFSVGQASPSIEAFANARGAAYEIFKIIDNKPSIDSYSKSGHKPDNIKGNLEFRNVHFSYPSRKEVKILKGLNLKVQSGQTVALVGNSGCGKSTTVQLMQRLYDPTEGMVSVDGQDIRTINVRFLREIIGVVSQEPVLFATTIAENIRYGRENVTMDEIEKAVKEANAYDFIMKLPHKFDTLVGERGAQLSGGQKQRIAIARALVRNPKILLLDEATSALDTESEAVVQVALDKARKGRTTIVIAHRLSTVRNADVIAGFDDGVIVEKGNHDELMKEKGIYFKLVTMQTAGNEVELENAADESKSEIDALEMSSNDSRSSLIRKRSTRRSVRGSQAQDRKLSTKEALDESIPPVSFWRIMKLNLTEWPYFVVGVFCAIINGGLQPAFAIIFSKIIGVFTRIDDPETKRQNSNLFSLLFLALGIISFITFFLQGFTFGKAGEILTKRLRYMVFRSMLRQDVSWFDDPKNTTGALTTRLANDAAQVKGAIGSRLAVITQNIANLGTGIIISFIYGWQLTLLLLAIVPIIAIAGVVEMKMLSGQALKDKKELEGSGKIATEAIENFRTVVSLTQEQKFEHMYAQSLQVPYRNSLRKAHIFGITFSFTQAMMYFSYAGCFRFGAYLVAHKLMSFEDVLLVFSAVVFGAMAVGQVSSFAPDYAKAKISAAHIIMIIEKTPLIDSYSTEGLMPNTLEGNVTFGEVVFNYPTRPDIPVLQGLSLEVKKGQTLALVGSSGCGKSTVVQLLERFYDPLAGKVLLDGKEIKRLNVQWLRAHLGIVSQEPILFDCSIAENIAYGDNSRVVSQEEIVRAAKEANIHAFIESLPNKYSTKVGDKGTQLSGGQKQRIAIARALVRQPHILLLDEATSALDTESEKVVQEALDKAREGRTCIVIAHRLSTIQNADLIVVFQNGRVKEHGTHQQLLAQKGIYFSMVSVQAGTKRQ", "chain of UniProt Q86VL8 (whole entry, looked up)": "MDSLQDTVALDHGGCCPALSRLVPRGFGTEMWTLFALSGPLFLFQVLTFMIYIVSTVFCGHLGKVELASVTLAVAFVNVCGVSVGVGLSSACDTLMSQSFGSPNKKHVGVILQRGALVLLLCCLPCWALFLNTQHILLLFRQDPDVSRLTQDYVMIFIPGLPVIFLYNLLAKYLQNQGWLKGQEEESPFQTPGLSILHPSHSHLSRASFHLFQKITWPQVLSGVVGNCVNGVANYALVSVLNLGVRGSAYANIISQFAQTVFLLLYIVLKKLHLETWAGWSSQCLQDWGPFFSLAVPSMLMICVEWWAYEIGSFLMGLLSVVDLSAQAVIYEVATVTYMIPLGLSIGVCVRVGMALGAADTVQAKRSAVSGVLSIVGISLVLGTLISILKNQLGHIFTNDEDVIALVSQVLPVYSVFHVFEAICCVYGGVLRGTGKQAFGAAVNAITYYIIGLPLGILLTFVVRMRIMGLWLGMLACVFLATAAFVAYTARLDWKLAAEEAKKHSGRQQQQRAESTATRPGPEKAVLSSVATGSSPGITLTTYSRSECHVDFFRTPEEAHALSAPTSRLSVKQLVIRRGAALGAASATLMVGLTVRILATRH", "chain of UniProt P11509 (whole entry, looked up)": "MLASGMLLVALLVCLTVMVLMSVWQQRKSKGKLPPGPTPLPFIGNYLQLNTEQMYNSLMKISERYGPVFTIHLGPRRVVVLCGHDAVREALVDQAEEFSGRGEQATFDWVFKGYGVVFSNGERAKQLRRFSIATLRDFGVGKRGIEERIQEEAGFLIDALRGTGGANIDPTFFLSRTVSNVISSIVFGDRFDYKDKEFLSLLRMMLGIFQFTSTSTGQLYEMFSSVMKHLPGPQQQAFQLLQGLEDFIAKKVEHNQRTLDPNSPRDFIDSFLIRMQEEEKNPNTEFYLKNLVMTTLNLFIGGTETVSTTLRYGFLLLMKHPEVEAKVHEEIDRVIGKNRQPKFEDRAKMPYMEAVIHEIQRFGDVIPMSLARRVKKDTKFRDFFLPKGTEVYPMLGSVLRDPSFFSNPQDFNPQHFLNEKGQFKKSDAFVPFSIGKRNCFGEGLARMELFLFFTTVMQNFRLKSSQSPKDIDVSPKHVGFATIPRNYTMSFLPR", "chain of UniProt P11712 (whole entry, looked up)": "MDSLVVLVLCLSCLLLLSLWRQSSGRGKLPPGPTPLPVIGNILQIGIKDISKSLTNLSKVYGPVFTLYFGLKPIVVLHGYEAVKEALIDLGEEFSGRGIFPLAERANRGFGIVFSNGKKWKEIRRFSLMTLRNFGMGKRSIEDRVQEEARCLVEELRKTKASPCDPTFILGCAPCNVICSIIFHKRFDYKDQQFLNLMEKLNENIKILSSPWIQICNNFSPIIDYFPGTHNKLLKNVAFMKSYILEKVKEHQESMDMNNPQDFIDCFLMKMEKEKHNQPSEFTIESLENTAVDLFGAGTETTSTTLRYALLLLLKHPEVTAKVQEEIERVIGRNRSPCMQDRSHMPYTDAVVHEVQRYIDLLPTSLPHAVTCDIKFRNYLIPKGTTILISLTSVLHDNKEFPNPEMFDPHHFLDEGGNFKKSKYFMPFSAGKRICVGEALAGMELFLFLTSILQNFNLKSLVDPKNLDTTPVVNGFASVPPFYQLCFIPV"}
{"Structure (SMILES)": "CNC(=O)C1OC(n2cnc3c(NCc4cccc(I)c4)ncnc32)C(O)C1O (stereo not shown)", "target": "ABCB1", "assay": "transport, inhibitor", "conditions": "100 µM, 5 (unit not given), pH 7, added: NMN", "measurement": "inhibition", "result": "66.5%"}
{"Structure (SMILES)": "Cc1cc(-c2ccc3ccccc3c2)nnc1NCCN1CCN(C)CC1", "target": "CYP2C8", "assay": "substrate", "test system": "recombinant enzyme", "conditions": "100 nM", "measurement": "half-life", "result": "> 1 h"}
{"Structure (SMILES)": "C[C@H](NCc1ccc(-c2ccc(C(F)(F)F)cc2)cc1)C(N)=O", "target": "CYP2C19", "assay": "P450-Glo luminescence", "test system": "potassium phosphate buffer", "conditions": "10 µM, pH 7.4, isoform 2C19", "measurement": "inhibition", "result": "84%"}
{"Structure (SMILES)": "CC(=O)NCCCC[C@@H]1NC(=O)[C@H](Cc2c[nH]c3c(C)cccc23)NC(=O)[C@H]([C@@H](C)O)NC(=O)[C@H](CC(N)=O)NC(=O)[C@@H](NC(C)=O)C(C)(C)SSC(C)(C)[C@@H](C(=O)N[C@@H](Cc2ccc(OCCN)cc2)C(=O)N[C@@H](Cc2ccc3ccccc3c2)C(=O)NC2(C(=O)N[C@@H](CCC(=O)O)C(=O)N[C@@H](CC(N)=O)C(=O)N[C@@H](Cc3cccnc3)C(=O)N(C)CC(N)=O)CCOCC2)NC1=O", "target": "ABCB1", "assay": "transport, inhibitor", "test system": "LLC-PK1 expressing MDR1", "conditions": "300 µM, 90 min, added: [3H]digoxin", "measurement": "efflux ratio", "result": 15.5}
{"Structure (SMILES)": "CCN(CC)CCOc1ccc(-c2nnn(Cc3ccc(OC)cc3)c2N)cc1", "target": "CYP2C19", "assay": "inhibitor", "measurement": "IC50", "result": "> 50 µM"}
{"Structure (SMILES)": "C[C@@H](c1ccc2nccn2c1)n1nnc2ncc(-c3cn[nH]c3)nc21", "target": "Cytochrome P450 2A6 (CYP2A6, Homo sapiens, UniProt P11509)", "assay": "enzyme activity, reversible inhibitor", "test system": "human liver microsomes", "measurement": "IC50", "result": "> 30 µM"}
{"Structure (SMILES)": "CSc1nc2[nH]nc([N+](=O)[O-])c(=O)n2n1", "target": "SLC47A2 (Homo sapiens, UniProt Q86VL8)", "assay": "transport, inhibitor", "test system": "transiently transfected cells", "conditions": "100 µM, 10 (unit not given), added: thiamine", "measurement": "inhibition", "result": "30.3%"}
{"Structure (SMILES)": "CC[C@H](C)[C@H](NC(=O)[C@H](Cc1ccccc1)NC(=O)[C@H](CCC(=O)O)NC(=O)[C@H](CCCCN)NC(=O)[C@H](C)NC(=O)[C@H](C)NC(=O)[C@H](CCC(N)=O)NC(=O)CNC(=O)[C@H](CCC(=O)O)NC(=O)[C@H](CC(C)C)NC(=O)[C@H](Cc1ccc(O)cc1)NC(=O)[C@H](CO)NC(=O)[C@H](CO)NC(=O)[C@@H](NC(=O)[C@H](CC(=O)O)NC(=O)[C@H](CO)NC(=O)[C@@H](NC(=O)[C@H](Cc1ccccc1)NC(=O)[C@@H](NC(=O)CNC(=O)[C@H](CCC(=O)O)NC(=O)[C@H](C)NC(=O)[C@@H](N)Cc1c[nH]cn1)[C@@H](C)O)[C@@H](C)O)C(C)C)C(=O)N[C@@H](C)C(=O)N[C@@H](Cc1c[nH]c2ccccc12)C(=O)N[C@@H](CC(C)C)C(=O)N[C@H](C(=O)N[C@@H](CCCCN)C(=O)NCC(=O)N[C@@H](CCCNC(=N)N)C(=O)NCC(=O)N[C@@H](Cc1ccccc1)C(=O)N[C@@H](Cc1ccccc1)C(=O)NCC(=O)O)C(C)C", "target": "DPP-4 (recombinant)", "assay": "substrate, LC-MS", "conditions": "500 µM, 24 h", "measurement": "remaining peptide", "result": "~85%"}
{"Structure (SMILES)": "CC[C@H](C)[C@H](NC(=O)[C@H](Cc1ccccc1)NC(=O)[C@H](CCC(=O)O)NC(=O)[C@H](CCCCN)NC(=O)[C@H](C)NC(=O)[C@H](C)NC(=O)[C@H](CCC(N)=O)NC(=O)CNC(=O)[C@H](CCC(=O)O)NC(=O)[C@H](CC(C)C)NC(=O)[C@H](Cc1ccc(O)cc1)NC(=O)[C@H](CO)NC(=O)[C@H](CO)NC(=O)[C@@H](NC(=O)[C@H](CC(=O)O)NC(=O)[C@H](CO)NC(=O)[C@@H](NC(=O)[C@H](Cc1ccccc1)NC(=O)[C@@H](NC(=O)CNC(=O)[C@H](CCC(=O)O)NC(=O)C(C)(C)NC(=O)N(N)Cc1c[nH]cn1)[C@@H](C)O)[C@@H](C)O)C(C)C)C(=O)N[C@@H](C)C(=O)N[C@@H](Cc1c[nH]c2ccccc12)C(=O)N[C@@H](CC(C)C)C(=O)N[C@H](C(=O)N[C@@H](CCCNC(=N)N)C(=O)NCC(=O)N[C@@H](CCCNC(=N)N)C(=O)NCC(=O)O)C(C)C", "target": "DPP4", "assay": "HPLC-UV", "test system": "Tris-HCl", "conditions": "0.1 mM, 4 h, pH 7.4, 37 °C, added: DPP4 16 nM", "measurement": "remaining peptide", "result": "100%"}
{"Structure (SMILES)": "C[C@@H](c1ccc2nccn2c1)n1nnc2nc(O)c(-c3cnn(C)c3)nc21", "target": "CYP2C8", "assay": "enzyme activity, inhibitor", "test system": "human, liver microsomes", "measurement": "IC50", "result": "11 µM"}
{"Structure (SMILES)": "O=C(CN1C(=O)C2(CCN(C(=O)c3ccc4[nH]ncc4c3)CC2)c2ccccc21)NCC(F)(F)F", "target": "Cytochrome P450 2C9 (CYP2C9, Homo sapiens, UniProt P11712)", "assay": "enzyme activity, inhibitor", "measurement": "IC50", "result": "10 µM"}
{"Structure (SMILES)": "CNC(=O)C1CCCN(C(=O)C2CC3CCC2N3C(=O)[C@@H]2C[C@@H](O)CN2C(=O)NCc2cccc(Cl)c2F)C1 (mixture of isomers)", "target": "CYP3A4 (human)", "assay": "inhibitor, time-dependent inhibition", "conditions": "0.617 µM, preincubated without NADPH, added: midazolam substrate", "scale": "baseline: negative control", "measurement": "remaining activity", "result": "99.7%"}
{"Structure (SMILES)": "CC[C@H](C)[C@H](NC(=O)[C@H](Cc1ccccc1)NC(=O)[C@H](CCC(=O)O)NC(=O)[C@H](CCCCN)NC(=O)[C@H](C)NC(=O)[C@H](C)NC(=O)[C@H](CCC(N)=O)NC(=O)CNC(=O)[C@H](CCC(=O)O)NC(=O)[C@H](CC(C)C)NC(=O)[C@H](Cc1ccc(O)cc1)NC(=O)[C@H](CO)NC(=O)[C@H](CO)NC(=O)[C@@H](NC(=O)[C@H](CC(=O)O)NC(=O)[C@H](CO)NC(=O)[C@@H](NC(=O)[C@H](Cc1ccccc1)NC(=O)[C@@H](NC(=O)CNC(=O)N(CCC(=O)O)NC(=O)[C@H](C)NC(=O)N(N)Cc1c[nH]cn1)[C@@H](C)O)[C@@H](C)O)C(C)C)C(=O)N[C@@H](C)C(=O)N[C@@H](Cc1c[nH]c2ccccc12)C(=O)N[C@@H](CC(C)C)C(=O)N[C@H](C(=O)N[C@@H](CCCNC(=N)N)C(=O)NCC(=O)N[C@@H](CCCNC(=N)N)C(=O)NCC(=O)O)C(C)C", "target": "DPP4", "assay": "HPLC-UV", "test system": "Tris-HCl", "conditions": "0.1 mM, 1 h, pH 7.4, 37 °C, added: DPP4 16 nM", "measurement": "remaining peptide", "result": "100%"}
{"note": "Some of these lines once more:"}
{"Structure (SMILES)": "CC(=O)NCCCC[C@@H]1NC(=O)[C@H](Cc2c[nH]c3c(C)cccc23)NC(=O)[C@H]([C@@H](C)O)NC(=O)[C@H](CC(N)=O)NC(=O)[C@@H](NC(C)=O)C(C)(C)SSC(C)(C)[C@@H](C(=O)N[C@@H](Cc2ccc(OCCN)cc2)C(=O)N[C@@H](Cc2ccc3ccccc3c2)C(=O)NC2(C(=O)N[C@@H](CCC(=O)O)C(=O)N[C@@H](CC(N)=O)C(=O)N[C@@H](Cc3cccnc3)C(=O)N(C)CC(N)=O)CCOCC2)NC1=O", "target": "ABCB1", "assay": "transport, inhibitor", "test system": "LLC-PK1 expressing MDR1", "conditions": "300 µM, 90 min, added: [3H]digoxin", "measurement": "efflux ratio", "result": 15.5}
